Results of several laboratories.
Numbered parts are unrelated; each lists some results of a single study. Several values in a cell are separate wells, animals, samples, runs or records.
Chain of UniProt P42681 (whole entry, looked up): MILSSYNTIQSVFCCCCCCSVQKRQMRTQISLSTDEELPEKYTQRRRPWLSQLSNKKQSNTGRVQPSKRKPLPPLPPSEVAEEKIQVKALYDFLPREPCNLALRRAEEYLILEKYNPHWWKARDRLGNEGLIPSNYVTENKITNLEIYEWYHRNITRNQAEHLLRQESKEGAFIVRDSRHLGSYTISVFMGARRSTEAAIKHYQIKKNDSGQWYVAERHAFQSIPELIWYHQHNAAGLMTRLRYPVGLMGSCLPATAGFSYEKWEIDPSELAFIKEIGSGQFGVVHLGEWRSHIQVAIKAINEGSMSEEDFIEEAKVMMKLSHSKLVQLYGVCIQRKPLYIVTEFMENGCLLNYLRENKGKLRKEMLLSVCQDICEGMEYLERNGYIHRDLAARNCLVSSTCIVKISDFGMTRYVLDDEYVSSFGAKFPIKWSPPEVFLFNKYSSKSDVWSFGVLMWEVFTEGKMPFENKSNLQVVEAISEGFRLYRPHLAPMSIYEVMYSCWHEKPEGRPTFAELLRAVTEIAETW
Chain of UniProt P51956 (whole entry, looked up): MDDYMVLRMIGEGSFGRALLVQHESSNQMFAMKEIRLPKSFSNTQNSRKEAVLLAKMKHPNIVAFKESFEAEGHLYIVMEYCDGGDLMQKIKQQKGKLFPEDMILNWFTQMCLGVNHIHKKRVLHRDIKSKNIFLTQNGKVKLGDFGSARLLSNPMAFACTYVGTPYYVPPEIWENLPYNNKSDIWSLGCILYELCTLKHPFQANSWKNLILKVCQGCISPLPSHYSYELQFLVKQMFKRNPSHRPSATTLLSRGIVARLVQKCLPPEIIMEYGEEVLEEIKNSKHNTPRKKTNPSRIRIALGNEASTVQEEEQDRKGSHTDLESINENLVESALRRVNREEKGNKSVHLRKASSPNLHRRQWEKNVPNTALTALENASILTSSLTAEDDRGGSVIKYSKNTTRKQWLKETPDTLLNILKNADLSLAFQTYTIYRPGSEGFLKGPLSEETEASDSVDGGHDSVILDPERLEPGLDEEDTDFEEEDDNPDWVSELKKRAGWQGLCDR
Chain of UniProt Q9H4B4 (whole entry, looked up): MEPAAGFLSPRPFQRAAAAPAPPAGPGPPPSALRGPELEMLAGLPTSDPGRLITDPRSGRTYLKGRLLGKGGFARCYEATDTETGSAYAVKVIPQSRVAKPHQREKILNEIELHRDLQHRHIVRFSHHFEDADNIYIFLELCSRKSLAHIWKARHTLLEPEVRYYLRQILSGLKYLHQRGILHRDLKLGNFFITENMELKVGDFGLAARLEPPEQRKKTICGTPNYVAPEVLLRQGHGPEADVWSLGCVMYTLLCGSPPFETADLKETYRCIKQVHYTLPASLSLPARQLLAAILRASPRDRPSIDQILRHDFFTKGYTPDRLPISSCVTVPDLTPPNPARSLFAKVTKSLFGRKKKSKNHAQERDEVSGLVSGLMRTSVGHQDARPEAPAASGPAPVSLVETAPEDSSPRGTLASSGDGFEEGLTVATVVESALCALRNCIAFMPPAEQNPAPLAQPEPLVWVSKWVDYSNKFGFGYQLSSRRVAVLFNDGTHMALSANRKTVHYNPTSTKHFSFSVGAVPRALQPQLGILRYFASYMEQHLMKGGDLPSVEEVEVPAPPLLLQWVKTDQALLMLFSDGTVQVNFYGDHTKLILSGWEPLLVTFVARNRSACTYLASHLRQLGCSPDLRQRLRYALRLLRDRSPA
Chain of UniProt P08581 (whole entry, looked up): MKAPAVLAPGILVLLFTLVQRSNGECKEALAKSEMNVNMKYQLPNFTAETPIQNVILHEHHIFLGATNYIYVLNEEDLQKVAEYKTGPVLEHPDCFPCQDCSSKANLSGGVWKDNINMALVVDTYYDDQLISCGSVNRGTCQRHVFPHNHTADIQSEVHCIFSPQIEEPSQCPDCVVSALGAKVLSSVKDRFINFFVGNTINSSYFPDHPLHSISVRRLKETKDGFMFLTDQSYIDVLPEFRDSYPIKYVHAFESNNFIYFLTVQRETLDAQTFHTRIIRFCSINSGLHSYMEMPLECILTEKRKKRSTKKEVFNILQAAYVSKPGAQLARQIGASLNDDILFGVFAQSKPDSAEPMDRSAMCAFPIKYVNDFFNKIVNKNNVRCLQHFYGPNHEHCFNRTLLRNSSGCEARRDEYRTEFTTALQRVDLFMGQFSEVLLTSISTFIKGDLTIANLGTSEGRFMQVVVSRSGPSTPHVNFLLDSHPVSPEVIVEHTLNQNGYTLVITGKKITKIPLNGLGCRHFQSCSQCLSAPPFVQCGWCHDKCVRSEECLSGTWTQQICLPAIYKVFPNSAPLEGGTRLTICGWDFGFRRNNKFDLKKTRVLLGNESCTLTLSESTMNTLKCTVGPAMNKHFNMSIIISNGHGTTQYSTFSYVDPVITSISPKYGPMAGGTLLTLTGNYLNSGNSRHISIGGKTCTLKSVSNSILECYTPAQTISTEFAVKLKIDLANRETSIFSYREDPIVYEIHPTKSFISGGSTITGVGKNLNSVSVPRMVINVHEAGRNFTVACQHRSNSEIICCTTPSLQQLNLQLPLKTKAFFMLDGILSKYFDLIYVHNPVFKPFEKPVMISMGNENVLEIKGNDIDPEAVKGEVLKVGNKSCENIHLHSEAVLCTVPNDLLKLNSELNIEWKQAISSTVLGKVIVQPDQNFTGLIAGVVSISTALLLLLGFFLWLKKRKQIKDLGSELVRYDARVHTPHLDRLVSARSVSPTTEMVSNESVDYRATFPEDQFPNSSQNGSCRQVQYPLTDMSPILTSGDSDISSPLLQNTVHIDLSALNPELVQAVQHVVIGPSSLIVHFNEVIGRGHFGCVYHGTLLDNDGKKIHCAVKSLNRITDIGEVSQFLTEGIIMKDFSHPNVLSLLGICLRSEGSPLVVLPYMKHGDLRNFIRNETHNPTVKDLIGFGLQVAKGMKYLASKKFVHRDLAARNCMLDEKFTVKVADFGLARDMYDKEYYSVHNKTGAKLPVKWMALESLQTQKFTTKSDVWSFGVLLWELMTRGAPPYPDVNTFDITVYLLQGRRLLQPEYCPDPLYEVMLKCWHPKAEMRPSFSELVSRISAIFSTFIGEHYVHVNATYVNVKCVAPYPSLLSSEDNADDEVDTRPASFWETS
Chain of UniProt Q02750 (whole entry, looked up): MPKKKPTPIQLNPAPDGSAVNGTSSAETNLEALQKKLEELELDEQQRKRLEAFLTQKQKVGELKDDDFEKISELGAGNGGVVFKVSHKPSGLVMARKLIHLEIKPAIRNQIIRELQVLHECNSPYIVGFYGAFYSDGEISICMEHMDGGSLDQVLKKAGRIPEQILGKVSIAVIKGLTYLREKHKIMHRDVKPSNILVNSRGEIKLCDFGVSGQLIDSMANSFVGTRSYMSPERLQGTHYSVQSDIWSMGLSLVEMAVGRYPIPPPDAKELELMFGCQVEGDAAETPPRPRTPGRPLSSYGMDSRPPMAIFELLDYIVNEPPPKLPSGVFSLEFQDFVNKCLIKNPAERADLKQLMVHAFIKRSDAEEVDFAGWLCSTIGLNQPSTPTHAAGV
Chain of UniProt P32298 (whole entry, looked up): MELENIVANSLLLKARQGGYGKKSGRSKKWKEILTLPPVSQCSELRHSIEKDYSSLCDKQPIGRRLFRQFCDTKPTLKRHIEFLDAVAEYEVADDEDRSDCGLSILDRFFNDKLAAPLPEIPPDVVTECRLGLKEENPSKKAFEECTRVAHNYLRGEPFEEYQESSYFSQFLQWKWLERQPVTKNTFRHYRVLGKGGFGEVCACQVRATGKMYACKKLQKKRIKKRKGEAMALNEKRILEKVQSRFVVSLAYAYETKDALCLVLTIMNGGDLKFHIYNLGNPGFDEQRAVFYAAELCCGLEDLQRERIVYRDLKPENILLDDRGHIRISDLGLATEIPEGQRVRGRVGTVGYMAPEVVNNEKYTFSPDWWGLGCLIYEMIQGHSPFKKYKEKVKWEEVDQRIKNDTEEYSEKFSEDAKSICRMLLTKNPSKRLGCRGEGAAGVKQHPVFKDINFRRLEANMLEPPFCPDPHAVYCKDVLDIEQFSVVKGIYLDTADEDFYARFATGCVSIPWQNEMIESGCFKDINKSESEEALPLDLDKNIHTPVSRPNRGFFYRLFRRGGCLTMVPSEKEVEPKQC
Chain of UniProt Q9HAZ1 (whole entry, looked up): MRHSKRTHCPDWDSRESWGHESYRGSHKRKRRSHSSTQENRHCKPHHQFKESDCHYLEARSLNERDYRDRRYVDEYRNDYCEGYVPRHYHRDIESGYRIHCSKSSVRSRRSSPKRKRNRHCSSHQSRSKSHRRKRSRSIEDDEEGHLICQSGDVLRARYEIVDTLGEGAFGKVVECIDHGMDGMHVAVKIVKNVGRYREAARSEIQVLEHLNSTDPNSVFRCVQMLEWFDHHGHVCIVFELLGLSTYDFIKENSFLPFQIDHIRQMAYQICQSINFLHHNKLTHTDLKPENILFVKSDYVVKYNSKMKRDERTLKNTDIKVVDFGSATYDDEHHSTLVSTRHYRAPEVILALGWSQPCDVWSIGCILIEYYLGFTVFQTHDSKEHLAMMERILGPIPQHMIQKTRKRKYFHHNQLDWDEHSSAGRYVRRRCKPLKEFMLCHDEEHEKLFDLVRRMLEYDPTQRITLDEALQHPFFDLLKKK
Chain of UniProt Q15759 (whole entry, looked up): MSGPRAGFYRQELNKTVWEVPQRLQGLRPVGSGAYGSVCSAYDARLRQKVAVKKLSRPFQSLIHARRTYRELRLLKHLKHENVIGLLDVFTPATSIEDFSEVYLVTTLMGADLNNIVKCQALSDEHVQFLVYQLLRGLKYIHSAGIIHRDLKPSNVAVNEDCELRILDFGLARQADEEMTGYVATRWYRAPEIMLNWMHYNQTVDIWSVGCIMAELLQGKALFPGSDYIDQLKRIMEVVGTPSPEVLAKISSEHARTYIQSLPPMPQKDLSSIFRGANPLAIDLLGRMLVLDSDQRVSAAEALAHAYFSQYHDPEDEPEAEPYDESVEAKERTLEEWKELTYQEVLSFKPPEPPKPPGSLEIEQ

Study 1
Cell line: mouse MPNST tumor cells
Technique: high-content nuclear imaging
Item: cell number
Tested at: 10 µM
Time: 12 h
Setting: mean of 2 replicates
Reference: plate mean
Direction: higher = more cells
SMILES	nuclei count
CCCCc1nn(-c2ccccc2C(F)(F)F)c(=O)n1Cc1ccc(-c2ccccc2S(=O)(=O)NC(=O)c2sccc2C)cc1	0.557 z-score
OC(CN1CCNCC1)Cn1c2ccc(Br)cc2c2cc(Br)ccc21 (centres unmarked)	-5.87 z-score
O=C(NCC(=O)N1CCCC1)Nc1ccc2cnccc2c1	-0.786 z-score and 0.521 z-score
S=c1nc[nH]c2nc[nH]c12	-2.27 z-score
COc1cc(OC)cc(-c2noc(N3CCN(C)C4(CCN(c5ccnc(C)c5)CC4)C3)n2)c1	-4.24 z-score and -4.58 z-score
CNC(=O)c1ccc(C)c(-n2c(C)cc(OCc3ccc(F)cc3F)c(Br)c2=O)c1	0.944 z-score

Study 2
Structure (SMILES): CC(C)(C)n1nc(Cc2cccc3ccccc23)c2c(N)ncnc21
Read-out: enzyme activity
Action: inhibitor
Tested at: 0.5 µM
Reference: control
target	remaining activity
Dual specificity mitogen-activated protein kinase kinase 1 (MAP2K1, Homo sapiens, UniProt Q02750)	101%
Dual specificity protein kinase CLK4 (CLK4, Homo sapiens, UniProt Q9HAZ1)	76.5%
Discoidin domain-containing receptor 2 (DDR2, Homo sapiens, UniProt Q16832)	121%
Serine/threonine-protein kinase PLK3 (PLK3, Homo sapiens, UniProt Q9H4B4)	95%
Mitogen-activated protein kinase 14 (MAPK14, Homo sapiens, UniProt Q16539)	63.3%
Mitogen-activated protein kinase 11 (MAPK11, Homo sapiens, UniProt Q15759)	95.2%
Serine/threonine-protein kinase Nek3 (NEK3, Homo sapiens, UniProt P51956)	95.5%
Rho-associated protein kinase 1 (ROCK1, Homo sapiens, UniProt Q13464)	93.4%
Serine/threonine-protein kinase MRCK beta (CDC42BPB, Homo sapiens, UniProt Q9Y5S2)	96.3%
Hepatocyte growth factor receptor (MET, Homo sapiens, UniProt P08581)	93.1%
G protein-coupled receptor kinase 4 (GRK4, Homo sapiens, UniProt P32298)	105%
Tyrosine-protein kinase TXK (TXK, Homo sapiens, UniProt P42681)	28.6%
cGMP-dependent protein kinase 2 (PRKG2, Homo sapiens, UniProt Q13237)	91%
MAP/microtubule affinity-regulating kinase 4 (MARK4, Homo sapiens, UniProt Q96L34)	87.2%

Study 3
SMILES: CCC(=O)N[C@@H]1CC[C@H](C(=O)N(C)c2ccc(-c3nc4ccccc4o3)cc2)C1
Read-out: cell-free assay
Technique: competition with immobilised ligand
Tested at: 1 µM
target	remaining binding [%]
Tyrosine-protein kinase Fgr (FGR, Homo sapiens, UniProt P09769)	100
Phosphatidylinositol 5-phosphate 4-kinase type-2 beta (PIP4K2B, Homo sapiens, UniProt P78356)	45
cAMP-dependent protein kinase catalytic subunit beta (PRKACB, Homo sapiens, UniProt P22694)	100
Epidermal growth factor receptor (EGFR, Homo sapiens, UniProt P00533)	100

Study 4
Species: mouse
Matrix: microsomes or S9
Tested at: 2 µM
Time: 0.5 h
Structure (SMILES)	remaining compound [%]
Cc1ccccc1CS(=O)(=O)c1ncc(CN(CCN(C)C)C(=O)NC(C)C)n1CC(C)C	0.682
COc1ccc2c(c1OC)C(=O)N1c3ccccc3C(=O)N(CC(=O)Nc3ccc4nc[nH]c4c3)C21 (centres unmarked)	73
COC(=O)CCNC(=O)CCc1nnc(O)[nH]c1=O	> 99
CCCC(O)(CCC)CC(=O)Nc1cc(-c2n[nH]c(=O)[nH]2)ccc1C	55.8
CCOC(=O)N1CCN(C(=O)C2CCC(CNS(=O)(=O)CC)CC2)CC1 (centres unmarked)	67.7

A few entries again (study 4):
Structure (SMILES)	remaining compound [%]
COc1ccc2c(c1OC)C(=O)N1c3ccccc3C(=O)N(CC(=O)Nc3ccc4nc[nH]c4c3)C21 (centres unmarked)	73
CCOC(=O)N1CCN(C(=O)C2CCC(CNS(=O)(=O)CC)CC2)CC1 (centres unmarked)	67.7
COC(=O)CCNC(=O)CCc1nnc(O)[nH]c1=O	> 99
